Experimental data collected from several papers.
Each numbered part is a random draw from the data of one study; scales do not carry over between parts.
Sequence of UniProt Q00535 (whole entry, looked up): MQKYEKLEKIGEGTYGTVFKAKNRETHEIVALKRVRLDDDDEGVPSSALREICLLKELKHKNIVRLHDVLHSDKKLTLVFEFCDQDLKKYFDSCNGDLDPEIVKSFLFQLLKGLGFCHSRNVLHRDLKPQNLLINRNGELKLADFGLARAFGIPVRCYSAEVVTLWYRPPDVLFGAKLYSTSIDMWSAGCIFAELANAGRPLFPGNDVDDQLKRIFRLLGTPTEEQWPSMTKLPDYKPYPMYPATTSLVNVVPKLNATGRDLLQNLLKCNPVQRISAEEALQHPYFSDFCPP
Sequence of UniProt P21127 (whole entry, looked up): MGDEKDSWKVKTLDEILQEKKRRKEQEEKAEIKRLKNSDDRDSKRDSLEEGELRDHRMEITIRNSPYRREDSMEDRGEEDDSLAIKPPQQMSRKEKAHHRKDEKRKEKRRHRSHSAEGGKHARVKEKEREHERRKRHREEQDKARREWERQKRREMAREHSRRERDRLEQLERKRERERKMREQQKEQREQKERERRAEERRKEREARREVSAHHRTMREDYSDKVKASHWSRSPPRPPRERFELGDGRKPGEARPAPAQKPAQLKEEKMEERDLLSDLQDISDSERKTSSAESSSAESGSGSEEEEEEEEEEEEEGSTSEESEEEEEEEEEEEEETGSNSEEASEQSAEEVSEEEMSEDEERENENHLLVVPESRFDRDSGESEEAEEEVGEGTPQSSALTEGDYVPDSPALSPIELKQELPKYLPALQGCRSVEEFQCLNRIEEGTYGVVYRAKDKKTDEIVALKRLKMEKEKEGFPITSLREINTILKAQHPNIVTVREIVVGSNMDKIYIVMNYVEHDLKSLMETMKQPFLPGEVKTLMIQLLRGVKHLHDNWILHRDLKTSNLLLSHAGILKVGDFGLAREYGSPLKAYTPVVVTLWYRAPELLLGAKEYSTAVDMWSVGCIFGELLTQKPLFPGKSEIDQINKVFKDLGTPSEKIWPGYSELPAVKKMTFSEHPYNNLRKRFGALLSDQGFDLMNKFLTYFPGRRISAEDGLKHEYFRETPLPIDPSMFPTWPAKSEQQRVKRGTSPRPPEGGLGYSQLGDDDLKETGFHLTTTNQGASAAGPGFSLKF
Sequence of UniProt P42336 (whole entry, unmodified, looked up): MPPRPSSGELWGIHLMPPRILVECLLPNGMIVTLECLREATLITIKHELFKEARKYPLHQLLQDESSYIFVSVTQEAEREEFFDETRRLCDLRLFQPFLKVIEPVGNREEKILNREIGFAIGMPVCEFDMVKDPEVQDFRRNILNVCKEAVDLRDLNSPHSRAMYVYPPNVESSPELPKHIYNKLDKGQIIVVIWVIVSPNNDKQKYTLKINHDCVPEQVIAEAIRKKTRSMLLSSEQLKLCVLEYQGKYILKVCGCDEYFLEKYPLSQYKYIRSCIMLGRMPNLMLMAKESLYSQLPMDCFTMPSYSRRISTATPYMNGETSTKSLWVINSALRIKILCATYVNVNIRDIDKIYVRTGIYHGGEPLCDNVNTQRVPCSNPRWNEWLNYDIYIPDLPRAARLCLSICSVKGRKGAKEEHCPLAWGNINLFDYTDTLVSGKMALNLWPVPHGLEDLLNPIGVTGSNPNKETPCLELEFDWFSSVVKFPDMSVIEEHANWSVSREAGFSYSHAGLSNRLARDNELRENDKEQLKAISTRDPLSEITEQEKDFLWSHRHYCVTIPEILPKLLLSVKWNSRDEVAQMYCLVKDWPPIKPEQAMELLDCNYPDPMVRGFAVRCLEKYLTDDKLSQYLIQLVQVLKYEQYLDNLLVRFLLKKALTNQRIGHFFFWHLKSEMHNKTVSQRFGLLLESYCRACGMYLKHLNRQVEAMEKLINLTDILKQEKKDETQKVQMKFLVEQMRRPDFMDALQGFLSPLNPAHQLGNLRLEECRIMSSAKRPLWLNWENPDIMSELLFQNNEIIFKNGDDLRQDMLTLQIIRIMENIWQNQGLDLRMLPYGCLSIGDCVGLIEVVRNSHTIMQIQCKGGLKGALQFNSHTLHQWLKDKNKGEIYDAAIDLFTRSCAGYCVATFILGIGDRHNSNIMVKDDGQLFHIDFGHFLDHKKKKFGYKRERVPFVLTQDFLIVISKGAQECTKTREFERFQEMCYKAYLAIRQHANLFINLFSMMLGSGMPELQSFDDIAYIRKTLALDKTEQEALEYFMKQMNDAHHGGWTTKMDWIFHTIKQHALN
Sequence of UniProt Q9UM73 (whole entry, looked up): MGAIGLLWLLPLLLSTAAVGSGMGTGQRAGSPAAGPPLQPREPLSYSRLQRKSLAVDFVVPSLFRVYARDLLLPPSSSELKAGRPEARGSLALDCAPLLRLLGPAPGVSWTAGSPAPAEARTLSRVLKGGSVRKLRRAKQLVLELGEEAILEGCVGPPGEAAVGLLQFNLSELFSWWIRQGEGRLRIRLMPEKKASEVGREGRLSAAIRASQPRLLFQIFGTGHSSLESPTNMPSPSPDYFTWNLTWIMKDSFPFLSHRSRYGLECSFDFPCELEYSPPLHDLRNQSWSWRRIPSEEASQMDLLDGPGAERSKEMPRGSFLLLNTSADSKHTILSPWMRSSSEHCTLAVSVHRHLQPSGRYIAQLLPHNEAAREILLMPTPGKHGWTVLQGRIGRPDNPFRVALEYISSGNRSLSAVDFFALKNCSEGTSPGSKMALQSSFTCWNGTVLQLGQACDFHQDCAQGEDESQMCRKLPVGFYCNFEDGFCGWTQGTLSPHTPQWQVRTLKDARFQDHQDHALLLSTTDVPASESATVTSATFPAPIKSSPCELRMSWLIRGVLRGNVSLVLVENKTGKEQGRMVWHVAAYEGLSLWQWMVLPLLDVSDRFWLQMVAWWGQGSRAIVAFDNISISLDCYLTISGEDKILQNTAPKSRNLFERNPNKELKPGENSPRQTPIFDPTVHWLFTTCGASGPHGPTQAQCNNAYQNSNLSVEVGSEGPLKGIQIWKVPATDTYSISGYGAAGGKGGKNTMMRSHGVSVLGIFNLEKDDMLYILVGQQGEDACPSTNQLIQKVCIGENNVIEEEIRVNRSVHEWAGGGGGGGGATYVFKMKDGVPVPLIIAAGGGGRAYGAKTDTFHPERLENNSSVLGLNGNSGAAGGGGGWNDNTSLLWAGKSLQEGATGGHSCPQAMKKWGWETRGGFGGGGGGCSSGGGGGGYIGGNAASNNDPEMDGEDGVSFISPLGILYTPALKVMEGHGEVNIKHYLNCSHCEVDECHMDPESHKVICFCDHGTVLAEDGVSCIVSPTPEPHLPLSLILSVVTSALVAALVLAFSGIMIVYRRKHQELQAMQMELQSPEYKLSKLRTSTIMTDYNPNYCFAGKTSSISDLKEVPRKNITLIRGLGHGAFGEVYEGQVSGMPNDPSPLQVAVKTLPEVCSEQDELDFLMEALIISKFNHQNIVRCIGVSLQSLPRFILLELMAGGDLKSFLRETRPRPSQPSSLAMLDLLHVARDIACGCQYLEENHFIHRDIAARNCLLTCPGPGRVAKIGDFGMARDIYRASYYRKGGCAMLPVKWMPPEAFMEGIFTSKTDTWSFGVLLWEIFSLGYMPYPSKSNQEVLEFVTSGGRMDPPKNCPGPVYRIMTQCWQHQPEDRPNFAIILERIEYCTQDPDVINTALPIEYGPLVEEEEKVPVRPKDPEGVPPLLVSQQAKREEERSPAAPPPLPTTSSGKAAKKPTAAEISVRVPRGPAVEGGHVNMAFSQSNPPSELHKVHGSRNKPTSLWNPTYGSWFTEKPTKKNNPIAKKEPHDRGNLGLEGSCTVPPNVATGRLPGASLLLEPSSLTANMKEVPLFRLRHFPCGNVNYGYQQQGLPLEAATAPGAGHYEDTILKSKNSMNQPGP
Sequence of UniProt Q13557 (whole entry, looked up): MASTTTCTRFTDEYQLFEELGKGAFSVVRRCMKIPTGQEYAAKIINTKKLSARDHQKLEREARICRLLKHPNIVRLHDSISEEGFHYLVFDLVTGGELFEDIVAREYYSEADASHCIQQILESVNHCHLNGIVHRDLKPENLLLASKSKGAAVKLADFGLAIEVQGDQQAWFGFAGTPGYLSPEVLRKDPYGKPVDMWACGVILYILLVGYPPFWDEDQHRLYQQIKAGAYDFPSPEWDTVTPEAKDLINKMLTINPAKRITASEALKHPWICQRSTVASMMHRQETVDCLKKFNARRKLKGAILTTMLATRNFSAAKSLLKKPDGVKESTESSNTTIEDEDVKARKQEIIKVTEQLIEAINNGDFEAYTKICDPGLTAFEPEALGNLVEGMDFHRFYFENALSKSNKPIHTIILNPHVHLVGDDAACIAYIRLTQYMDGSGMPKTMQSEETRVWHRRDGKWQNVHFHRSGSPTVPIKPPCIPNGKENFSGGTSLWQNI
Sequence of UniProt P53667 (whole entry, looked up): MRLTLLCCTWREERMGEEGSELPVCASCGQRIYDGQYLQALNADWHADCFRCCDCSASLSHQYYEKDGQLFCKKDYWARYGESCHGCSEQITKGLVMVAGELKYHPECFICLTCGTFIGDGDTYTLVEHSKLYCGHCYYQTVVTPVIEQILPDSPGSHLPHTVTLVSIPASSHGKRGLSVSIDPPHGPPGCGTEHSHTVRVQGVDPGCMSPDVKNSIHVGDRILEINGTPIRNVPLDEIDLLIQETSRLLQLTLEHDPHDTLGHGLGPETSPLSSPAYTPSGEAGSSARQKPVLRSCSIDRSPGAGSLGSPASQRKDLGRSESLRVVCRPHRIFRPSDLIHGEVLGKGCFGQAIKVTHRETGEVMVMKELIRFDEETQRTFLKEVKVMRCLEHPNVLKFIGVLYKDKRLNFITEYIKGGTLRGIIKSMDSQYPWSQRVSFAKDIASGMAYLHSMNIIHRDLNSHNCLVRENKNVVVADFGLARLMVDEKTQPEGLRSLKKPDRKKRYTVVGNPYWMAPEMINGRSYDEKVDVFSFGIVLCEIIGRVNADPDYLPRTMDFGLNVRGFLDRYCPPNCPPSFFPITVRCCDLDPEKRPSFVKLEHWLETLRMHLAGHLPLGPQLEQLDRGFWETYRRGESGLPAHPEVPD

Sample 1 — SMILES: FC(F)(F)c1ccc2c(c1)nc(-c1cccnc1)n2C1CC1; read-out: cell-free assay; method: competition with immobilised ligand; tested at: 1 µM
For ALK (Homo sapiens, UniProt Q9UM73): remaining binding read 100%.
It gave 100% for remaining binding (CDK11B (Homo sapiens, UniProt P21127)).
It gave 100% for remaining binding (ANKK1 (Homo sapiens, UniProt Q8NFD2)).
For PIK3CA (Homo sapiens, UniProt P42336, E545A): remaining binding read 90%.
CDK9 (Homo sapiens, UniProt P50750) — remaining binding: 100%.
It gave 96% for remaining binding (MAP3K5 (Homo sapiens, UniProt Q99683)).
The remaining binding was 100% (Ribosomal protein S6 kinase alpha-5, C-terminal kinase domain (RPS6KA5, Homo sapiens, UniProt O75582)).
The remaining binding was 100% (MAP4K3 (Homo sapiens, UniProt Q8IVH8)).
It gave 100% for remaining binding (CDK7 (Homo sapiens, UniProt P50613)).
It gave 100% for remaining binding (PTK2 (Homo sapiens, UniProt Q05397)).
FLT3 (Homo sapiens, UniProt P36888, R834Q) — remaining binding: 100%.
It gave 100% for remaining binding (CDC42BPA (Homo sapiens, UniProt Q5VT25)).
CDK5 (Homo sapiens, UniProt Q00535) — remaining binding: 100%.
MAPK6 (Homo sapiens, UniProt Q16659) — remaining binding: 100%.
The remaining binding was 100% (IGF1R (Homo sapiens, UniProt P08069)).
The remaining binding was 100% (LIM domain kinase 1 (LIMK1, Homo sapiens, UniProt P53667)).
The remaining binding was 100% (PRKACB (Homo sapiens, UniProt P22694)).

Sample 2 — cell line: mouse MPNST tumor cells; method: high-content nuclear imaging; measured: cell number; tested at: 10 µM; time: 12 h; notes: mean of 2 replicates; relative to: plate mean; direction: higher = more cells
`CCn1c(-c2nonc2N)nc2c(C#CC(C)(C)O)ncc(OC[C@H]3CCCNC3)c21` gave a nuclei count of 3.56 z-score.
For `CN(C)CCCN1c2ccccc2Sc2ccc(C(F)(F)F)cc21`, the nuclei count was -5.43 z-score.
`CC(=O)O[C@]1(C(C)=O)CC[C@H]2[C@@H]3C=C(Cl)C4=CC(=O)CC[C@]4(C)[C@H]3CC[C@@]21C` gave a nuclei count of 3.13 z-score.
The nuclei count of `O=C(O)[C@H]1/C(=C/CO)O[C@@H]2CC(=O)N21` is reported as 1.08 z-score.
With `N[C@@H](CCC(=O)N[C@@H](CSN=O)C(=O)NCC(=O)O)C(=O)O` the nuclei count was 3.03 z-score.
`O=C(O)COC(=O)Cc1ccccc1Nc1c(Cl)cccc1Cl` has a nuclei count of 0.801 z-score.
`CCN(CC)CCNC(=O)c1c(C)[nH]c(/C=C2\C(=O)Nc3ccc(F)cc32)c1C` gave a nuclei count of 1.43 z-score.
`Cc1cc(C)c(S(=O)(=O)Nc2ccccc2C(F)(F)F)c(C)c1` has a nuclei count of -0.324 z-score.

Sample 3 — read-out: enzyme activity; mode: inhibitor; tested at: 0.5 µM; relative to: control
Compound: COc1cc2c(cc1OC)-c1[nH]nc(Nc3cccc(F)c3)c1C2
The remaining activity was 89% (STK10 (Homo sapiens, UniProt O94804)).
For DAPK1 (Homo sapiens, UniProt P53355): remaining activity read 90.7%.
OXSR1 (Homo sapiens, UniProt O95747) — remaining activity: 121%.
It gave 98.4% for remaining activity (GRK3 (Homo sapiens, UniProt P35626)).
It gave 86.7% for remaining activity (DAPK2 (Homo sapiens, UniProt Q9UIK4)).
STK39 (Homo sapiens, UniProt Q9UEW8) — remaining activity: 105%.
It gave 100% for remaining activity (TGFBR2 (Homo sapiens, UniProt P37173)).
It gave 103% for remaining activity (MAP3K3 (Homo sapiens, UniProt Q99759)).
For NEK2 (Homo sapiens, UniProt P51955): remaining activity read 93%.
For cGMP-dependent protein kinase 1, isoform beta (PRKG1, Homo sapiens, UniProt Q13976): remaining activity read 104%.
MAPK9 (Homo sapiens, UniProt P45984) — remaining activity: 75.9%.
It gave 99.2% for remaining activity (PRKCA (Homo sapiens, UniProt P17252)).
It gave 86.8% for remaining activity (CAMKK2 (Homo sapiens, UniProt Q96RR4)).
It gave 92.8% for remaining activity (PRKACA (Homo sapiens, UniProt P17612)).
The remaining activity was 96% (Protein kinase C beta type, isoform beta-I (PRKCB, Homo sapiens, UniProt P05771)).
It gave 103% for remaining activity (CAMK2D (Homo sapiens, UniProt Q13557)).
The remaining activity was 77.5% (Tyrosine-protein kinase Lyn, isoform B (LYN, Homo sapiens, UniProt P07948)).
For IKBKE (Homo sapiens, UniProt Q14164): remaining activity read 93.3%.
For Cyclin-dependent kinase 5, with p25 (CDK5, Homo sapiens, UniProt Q00535): remaining activity read 89%.
The remaining activity was 96.5% (CHEK2 (Homo sapiens, UniProt O96017)).
It gave 98.2% for remaining activity (IKBKB (Homo sapiens, UniProt O14920)).
It gave 101% for remaining activity (TGFBR1 (Homo sapiens, UniProt P36897)).

Sample 4 — organism: Sarcocystis neurona; read-out: parasite growth; tested at: 10 µM; notes: second screen
`C[C@]12CC[C@@H]3c4ccc(O)cc4CC[C@H]3[C@@H]1CC[C@@H]2O` has an inhibition of -71.5%.
`CCCN[C@H]1CCc2nc(N)sc2C1.Cl` has an inhibition of -65.5%.
`Cl.Nc1nc2ccc(OC(F)(F)F)cc2s1` gave an inhibition of -343%.

Excerpt of the above (sample 1):
It gave 100% for remaining binding (PTK2 (Homo sapiens, UniProt Q05397)).
FLT3 (Homo sapiens, UniProt P36888, R834Q) — remaining binding: 100%.
It gave 100% for remaining binding (CDC42BPA (Homo sapiens, UniProt Q5VT25)).
CDK5 (Homo sapiens, UniProt Q00535) — remaining binding: 100%.
MAPK6 (Homo sapiens, UniProt Q16659) — remaining binding: 100%.
The remaining binding was 100% (IGF1R (Homo sapiens, UniProt P08069)).
